Assay results from different studies.
± marks the error that the study gave.

`CC(C)C[C@H](NC(=O)[C@H](CCCCN)NC(=O)[C@H](CCC(=O)O)NC(=O)[C@H](C)NC(=O)[C@@H](NC(=O)[C@H](CCCCN)NC(=O)[C@H](CC(=O)O)NC(=O)[C@H](Cc1ccc(O)cc1)NC(=O)[C@H](Cc1ccccc1)NC(=O)[C@H](C)NC(=O)[C@H](CCCCN)NC(=O)[C@H](CC(C)C)NC(=O)[C@H](Cc1c[nH]c2ccccc12)NC(=O)[C@@H](N)CC(=O)O)C(C)C)C(=O)N[C@@H](CCCCN)C(=O)N[C@@H](CCC(=O)O)C(=O)N[C@@H](C)C(=O)N[C@@H](Cc1ccccc1)C(=O)N1CCC[C@H]1C(=O)N[C@@H](CC(=O)O)C(=O)N[C@@H](Cc1c[nH]c2ccccc12)C(=O)N[C@@H](C)C(=O)N[C@@H](CCCCN)C(=O)N[C@@H](C)C(=O)N[C@@H](C)C(=O)N[C@@H](Cc1ccc(O)cc1)C(=O)N[C@@H](CC(=O)O)C(=O)N[C@@H](CCCCN)C(=O)N[C@@H](C)C(=O)N[C@@H](C)C(=O)N[C@@H](CCC(=O)O)C(=O)N[C@@H](CCCCN)C(=O)N[C@@H](C)C(=O)N[C@@H](CCCCN)C(=O)N[C@@H](CCC(=O)O)C(=O)N[C@@H](C)C(=O)N[C@@H](C)C(=O)O`: “volume of distribution at steady state” 0.057 L/kg (cynomolgus monkey female, plasma; intravenous infusion, 75 mg/kg every other day, day 27).
`CC[C@@H]1C[C@]1(NC(=O)[C@@H]1C[C@@]2(CN1C(=O)[C@@H](NC(=O)[C@@H](NC(=O)[C@@H]1CCCCN1C(C)C)C1CCCCC1)C(C)(C)C)C(C)(C)C21CCC1)C(=O)NS(=O)(=O)N1CCCC1`: “subjects with adverse event” 0% (refers to: upper respiratory tract infection; human; oral, 50 mg, day 2, together with: ritonavir 100 mg simultaneously).
`CCCCCCCC(=O)OC[C@H](NC(=O)[C@H](CO)NC(=O)CN)C(=O)N[C@@H](Cc1ccccc1)C(=O)N[C@@H](CC(C)C)C(=O)N[C@@H](CO)C(=O)N1CCC[C@H]1C(=O)N[C@@H](CCC(=O)O)C(=O)N[C@@H](Cc1cnc[nH]1)C(=O)N[C@@H](CCC(N)=O)C(=O)N[C@@H](CCCNC(=N)N)C(=O)N[C@H](C(=O)N[C@@H](CCC(N)=O)C(=O)N[C@@H](CCC(N)=O)C(=O)N[C@@H](CCCNC(=N)N)C(=O)N[C@@H](CCCCN)C(=O)N[C@@H](CCC(=O)O)C(=O)N[C@@H](CO)C(=O)N[C@@H](CCCCN)C(=O)N[C@@H](CCCCN)C(=O)N1CCC[C@H]1C(=O)N1CCC[C@H]1C(=O)N[C@@H](C)C(=O)N[C@@H](CCCCN)C(=O)N[C@@H](CC(C)C)C(=O)N[C@@H](CCC(N)=O)C(=O)N1CCC[C@H]1C(=O)N[C@@H](CCCNC(=N)N)C(=O)O)C(C)C` has a dose-normalised Cmax of 3.91 ± 0.79 (human, plasma; intravenous infusion, 3 µg/kg/h, 65 min infusion).
For `C[C@@H]1CC[C@H]2[C@@H](C)CO[C@@H]3O[C@@]4(C)CC[C@@H]1[C@]32OO4`, the measured concentration was 2.05 ± 0.08 ng/mL (refers to: compound; rat, plasma; 2.00 ng/mL spiked, three freeze/thaw cycles).
`COc1cc(-c2cncc(-c3ccc(C4CCN([11CH3])CC4)cc3)c2C)cc(OC)c1OC` has a peak SUV of 0.9 (dynamic PET; Sprague-Dawley rats male, whole brain; intravenous, 16 to 23 MBq).
`CCCCCCCC(=O)NC[C@H](NC(=O)[C@H](CO)NC(=O)CN)C(=O)N[C@@H](Cc1ccccc1)C(=O)N[C@@H](CC(C)C)C(=O)N[C@@H](CO)C(=O)N1CCC[C@H]1C(=O)N[C@@H](CCC(=O)O)C(=O)N[C@@H](Cc1c[nH]cn1)C(=O)N[C@@H](CCC(N)=O)C(=O)N[C@@H](CCCNC(=N)N)C(=O)N[C@H](C(=O)N[C@@H](CCC(N)=O)C(=O)N[C@H](C(=O)N[C@@H](CCCNC(=N)N)C(=O)N1CCC[C@H]1C(=O)N1CCC[C@H]1C(=O)N[C@@H](Cc1c[nH]cn1)C(=O)N[C@@H](CCCCN)C(=O)N[C@@H](C)C(=O)N1CCC[C@H]1C(=O)N[C@@H](Cc1c[nH]cn1)C(=O)N[C@H](C(=O)N[C@H](C(=O)O)C(C)C)C(C)C)C(C)C)C(C)C` gave a Tmax of 5 min (mouse, plasma; intraperitoneal, 1.2 mg/kg).
`COc1ccc(C)cc1NC(=O)OC1CC2CCCC(C1)N2Cc1ccc(CC[18F])cc1` (stereo not shown) gave a tissue uptake of 5.82 ± 0.33 %ID/g (BALB/c mice, EMT6 tumour, kidney; 2 h).
With `COc1cc(-c2nc3ccccc3s2)cc(CN(C)Cc2ccccn2)c1O` the viability was 77 ± 2% (Alamar Blue; Neuro2A, mouse; 2 µM, 40 h).
The concentration of `COC(=O)C[C@](O)(CCCC(C)(C)OC(C)=O)C(=O)O[C@@H]1C(OC)=C[C@]23CCCN2CCc2cc4c(cc2[C@H]13)OCO4` is reported as 10 ng/mL (CD1 mouse, plasma; oral, 1 mg/kg, 8 h).
With `CSCC[C@@H]1NC(=O)[C@@H]2CSSC[C@H](NC(=O)[C@H](CO)NC(=O)[C@H](C)N)C(=O)N[C@@H](CCCNC(=N)N)C(=O)N[C@@H]([C@@H](C)O)C(=O)N3CCC[C@H]3C(=O)N[C@@H](CCCCN)C(=O)N[C@@H](CC(=O)O)C(=O)N[C@H]3CSSC[C@H](NC(=O)[C@H](CCCCN)NC(=O)[C@H](CCCNC(=N)N)NC(=O)[C@H](CC(N)=O)NC1=O)C(=O)N[C@@H](CCCCN)C(=O)N[C@H]1CSSC[C@H](NC(=O)[C@@H]4CCCN4C(=O)[C@H](CC(=O)O)NC(=O)[C@H](C)NC3=O)C(=O)N[C@@H](C)C(=O)N[C@@H](CCCCN)C(=O)N[C@@H](CCC(=O)O)C(=O)N[C@@H]([C@@H](C)O)C(=O)NCC(=O)N[C@@H](CSSC[C@@H](C(N)=O)NC(=O)[C@H](CCCNC(=N)N)NC(=O)[C@H](CC(N)=O)NC1=O)C(=O)N1CCC[C@H]1C(=O)N[C@@H](Cc1ccc(O)cc1)C(=O)NCC(=O)N[C@@H](CCCCN)C(=O)N2` the VLDL was 13.2 mg/dL (DA rat, pristane-induced arthritis, serum; subcutaneous, 0.1 mg/kg single dose at onset, 21 days).

For quick reference, copied from above:
`COc1ccc(C)cc1NC(=O)OC1CC2CCCC(C1)N2Cc1ccc(CC[18F])cc1` (stereo not shown) gave a tissue uptake of 5.82 ± 0.33 %ID/g (BALB/c mice, EMT6 tumour, kidney; 2 h).
